Measurements from different studies.
Each line is one published result; not all experiments were run side by side.
Target: Ephrin type-A receptor 5 (EPHA5, Homo sapiens, UniProt P54756)
Chain of UniProt P54756 (whole entry, looked up): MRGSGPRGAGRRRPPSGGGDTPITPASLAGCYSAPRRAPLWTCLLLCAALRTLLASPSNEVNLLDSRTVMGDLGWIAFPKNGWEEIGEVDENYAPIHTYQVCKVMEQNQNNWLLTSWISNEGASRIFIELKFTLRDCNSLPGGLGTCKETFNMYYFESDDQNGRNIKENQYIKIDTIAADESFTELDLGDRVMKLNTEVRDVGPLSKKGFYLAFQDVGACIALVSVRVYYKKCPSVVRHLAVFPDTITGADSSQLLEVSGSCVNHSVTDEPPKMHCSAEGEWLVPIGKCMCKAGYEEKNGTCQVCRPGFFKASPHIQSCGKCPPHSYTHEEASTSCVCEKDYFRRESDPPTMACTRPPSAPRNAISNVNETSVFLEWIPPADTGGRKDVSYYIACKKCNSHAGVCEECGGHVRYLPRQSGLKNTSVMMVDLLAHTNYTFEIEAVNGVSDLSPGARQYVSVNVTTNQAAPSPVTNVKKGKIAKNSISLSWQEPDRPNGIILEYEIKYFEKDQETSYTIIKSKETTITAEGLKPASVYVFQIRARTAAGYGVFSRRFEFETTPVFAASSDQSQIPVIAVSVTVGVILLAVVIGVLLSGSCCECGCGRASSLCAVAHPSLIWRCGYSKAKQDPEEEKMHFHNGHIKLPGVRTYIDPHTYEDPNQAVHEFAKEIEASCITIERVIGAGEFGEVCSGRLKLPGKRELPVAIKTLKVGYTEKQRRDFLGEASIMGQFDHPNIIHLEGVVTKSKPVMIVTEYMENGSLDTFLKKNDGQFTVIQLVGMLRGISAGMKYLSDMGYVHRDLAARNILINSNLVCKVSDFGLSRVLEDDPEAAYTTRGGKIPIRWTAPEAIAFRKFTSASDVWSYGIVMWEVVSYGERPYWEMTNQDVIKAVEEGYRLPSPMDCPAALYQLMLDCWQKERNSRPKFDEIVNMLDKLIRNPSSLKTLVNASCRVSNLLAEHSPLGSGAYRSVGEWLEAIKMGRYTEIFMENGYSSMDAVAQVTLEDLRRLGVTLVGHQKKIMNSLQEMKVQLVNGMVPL

With `CCCOc1ccc(OC)c(F)c1C(=O)c1ccc(C(=O)N[C@@H]2CNC[C@H]2NC(=O)c2ccc3[nH]ncc3c2)cc1` the remaining activity was 92% (enzyme activity; 10 µM).
The remaining activity of `O=C(NC1CCC1)c1ccc2nc(-c3cccc(NS(=O)(=O)NCCN4CCCCC4)c3)cn2c1` is reported as 100% (enzyme activity; 10 µM).
Under “percent of control”, `C1=C/COCc2cc(ccc2OCCN2CCCC2)Nc2nccc(n2)-c2cccc(c2)COC/1` is recorded as 100% (concentration not given).
`C[C@@H](c1ccc(-n2cnc3c(N)ncnc32)cc1)N1CCc2nn(C)c(Cc3ccccc3)c2C1=O` has a remaining binding of 97% (KINOMEscan; 0.1 µM; baseline: DMSO control).
`C=CC(=O)N1CCC(COCC(=O)N2CCN(c3nc(-c4cnc(N)nc4C(F)F)nc(N4CCOC[C@@H]4C)n3)CC2)CC1` gave a remaining binding of 100% (KINOMEscan; 1 µM; baseline: DMSO control).
For `CNc1ncc2c(/C=C/C(=O)N3CCC(OC)CC3)nn(Cc3cccc(C(F)(F)F)c3)c2n1`, the remaining activity was 102% (kinase activity, inhibitor; 1 µM; baseline: untreated control).
`C=CC(=O)N1CCC(C(=O)NCC(=O)N2CCN(c3nc(-c4cnc(N)nc4C(F)F)nc(N4CCOCC4)n3)CC2)CC1` gave a remaining binding of 100% (KINOMEscan; 1 µM).
For `CCN(CC)c1ccc(C2=NNC(=O)CC2C)cc1[N+](=O)[O-]` (centres unmarked), the remaining activity was 94% (enzyme activity, inhibitor; 10 µM; baseline: vehicle).
The inhibition of `C#Cc1cc(-c2cc(Nc3nc(N[C@@H](C)c4ccc(F)cn4)ncc3Cl)n[nH]2)ccc1C=O` is reported as 26.5% (enzyme activity, inhibitor; 0.2 µM).
The remaining activity of `Cc1cc(Nc2cc(N3CCN(C)CC3)nc(Sc3ccc(NC(=O)C4CC4)cc3)n2)[nH]n1` is reported as 98% (kinase activity, KinaseProfiler; 0.03 µM, species human; baseline: control).
The remaining activity of `COc1cc(F)ccc1-c1ncnc(Nc2cccc(C[S@](C)(=N)=O)c2)n1` is reported as 91% (kinase activity; 10 µM, added: 10 µM ATP).

Excerpt of the above:
For `CNc1ncc2c(/C=C/C(=O)N3CCC(OC)CC3)nn(Cc3cccc(C(F)(F)F)c3)c2n1`, the remaining activity was 102% (kinase activity, inhibitor; 1 µM; baseline: untreated control).
`C=CC(=O)N1CCC(C(=O)NCC(=O)N2CCN(c3nc(-c4cnc(N)nc4C(F)F)nc(N4CCOCC4)n3)CC2)CC1` gave a remaining binding of 100% (KINOMEscan; 1 µM).
